Measurements from different studies.
Lines come from different studies, so protocols differ. ± marks the error that the study gave.
rep main protease: Replicase polyprotein 1ab, main protease (rep, Severe acute respiratory syndrome coronavirus 2, UniProt P0DTD1)
rep nsp14 with nsp10: Replicase polyprotein 1ab, nsp14 with nsp10 (rep, Severe acute respiratory syndrome coronavirus 2, UniProt P0DTD1)

By UniProt entry, the sequences of proteins in these tests, tags left out.
UniProt P41146, whole entry: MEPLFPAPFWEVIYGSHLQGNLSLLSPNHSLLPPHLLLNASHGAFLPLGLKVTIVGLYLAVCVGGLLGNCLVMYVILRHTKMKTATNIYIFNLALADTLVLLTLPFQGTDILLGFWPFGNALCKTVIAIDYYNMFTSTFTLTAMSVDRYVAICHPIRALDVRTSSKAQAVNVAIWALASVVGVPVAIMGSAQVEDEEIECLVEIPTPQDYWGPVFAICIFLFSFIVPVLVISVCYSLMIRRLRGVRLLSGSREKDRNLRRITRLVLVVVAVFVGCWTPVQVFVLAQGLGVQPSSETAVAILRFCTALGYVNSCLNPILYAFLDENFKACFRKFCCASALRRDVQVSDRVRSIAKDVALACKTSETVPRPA

Cc1ccc(S(=O)(=O)Nc2cccc(C(=O)NC3CCN(c4ncnc5[nH]cnc45)CC3)c2)cc1
inhibition (Replicase polyprotein 1ab, nsp14 ExoN with nsp10 (rep, Severe acute respiratory syndrome coronavirus 2, UniProt P0DTD1); ExoN activity; 0.1953 µM): 7.6%

Oc1nc(/C=C/c2ccc(Cl)cc2Cl)cc(C(F)(F)F)n1
activation free energy (Replicase polyprotein 1ab, nsp16 with nsp10 (rep, Severe acute respiratory syndrome coronavirus 2, UniProt P0DTD1); irreversible inhibitor): 21.2 kcal/mol

CC[C@H](C)[C@H](NC(=O)[C@H](C)NC(=O)[C@H](CCC(=O)O)NC(=O)[C@H](CCC(=O)O)NC(=O)[C@H](CC(C)C)NC(=O)[C@H](CCCCN)NC(=O)[C@H](CCCCN)NC(=O)[C@H](CCSC)NC(=O)[C@H](CCC(=O)O)NC(=O)[C@H](Cc1ccc(O)cc1)NC(=O)[C@H](CCC(=O)O)NC(=O)[C@H](CC(C)C)NC(=O)[C@H](CC(=O)O)NC(=O)[C@H](CC(C)C)NC(=O)[C@H](Cc1ccccc1)NC(=O)[C@H](Cc1ccccc1)NC(=O)[C@@H](NC(=O)[C@H](CC(N)=O)NC(=O)[C@@H](NC(=O)[C@H](CCC(N)=O)NC(=O)[C@H](CC(=O)O)NC(=O)[C@H](CC(C)C)NC(=O)[C@@H](N)CO)[C@@H](C)CC)C(C)C)C(=O)N[C@@H](CCCCN)C(=O)N[C@@H](CCCCN)C(=O)N[C@@H](CC(C)C)C(=O)N[C@@H](CCC(=O)O)C(=O)N[C@@H](CCC(=O)O)C(=O)N[C@@H](CO)C(=O)N[C@@H](Cc1ccc(O)cc1)C(=O)N[C@H](C(=O)N[C@@H](CC(=O)O)C(=O)N[C@@H](CC(C)C)C(=O)N[C@@H](CCCCN)C(=O)N[C@@H](CCC(=O)O)C(=O)N[C@@H](CC(C)C)C(=O)O)[C@@H](C)CC
IC50 (SARS-CoV-2 Beta pseudovirus; pseudovirus infection, inhibitor, luciferase; Caco-2; 24 h): 406 nM

CC(C)C[C@H](NC(=O)[C@@H](NC(=O)[C@@H](NC(=O)[C@H](CO)NC(=O)c1ccccc1N)C(C)C)[C@@H](C)O)C(=O)N[C@@H](CCC(N)=O)C(=O)N[C@@H](CO)C(=O)NCC(=O)N[C@@H](Cc1ccc(O)c([N+](=O)[O-])c1)C(=O)N[C@@H](CCCNC(=N)N)C(=O)O
Km (rep main protease; substrate; pH 7.4, 300 nM enzyme): 132 ± 25.9 µM

CC(C)[C@H]1CC[C@@H](N2CCC3(CC2)C(=O)NCN3c2ccccc2)CC1
Emax (Nociceptin receptor (OPRL1, Homo sapiens, UniProt P41146); calcium mobilization; CHO with Gαqi5; baseline: baseline): 278 ± 23%

NS(=O)(=O)c1ccc(-c2cn(-c3ccc(C(=O)C=C(O)C(=O)O)cc3)nn2)cc1
inhibition (rep nsp14 with nsp10; exonuclease activity, inhibitor; 20 µM): 118%

Clc1nc2ccccc2cc1/C=N/c1cc(Br)ccn1
inhibition (Replicase polyprotein 1ab, papain-like protease (rep, Severe acute respiratory syndrome coronavirus 2, UniProt P0DTD1); enzyme activity, inhibitor; 100 µM): 18.8%

O=C(Nc1cccc(Cl)c1)Nc1nonc1NC(=O)Nc1cccc(Cl)c1
luciferase signal (Replicase polyprotein 1ab, nsp4-nsp5-nsp6 precursor (rep, Severe acute respiratory syndrome coronavirus 2, UniProt P0DTD1); reporter gene, cell-based secondary screen): 8.4 ± 0.7%

O=C(NCc1ccc(F)cc1)C1C(=O)N(O)C(=O)c2cc([N+](=O)[O-])ccc21 (stereo not drawn)
inhibition (rep nsp14 with nsp10; exonuclease activity, inhibitor; 20 µM): 106%

CC[C@H](C)[C@H](NC(=O)[C@H](C)NC(=O)[C@H](CCC(=O)O)NC(=O)[C@H](CCC(=O)O)NC(=O)[C@H](CC(C)C)NC(=O)[C@H](CCCCN)NC(=O)[C@H](CCCCN)NC(=O)[C@H](CCSC)NC(=O)[C@H](CCC(=O)O)NC(=O)[C@H](Cc1ccc(O)cc1)NC(=O)[C@H](CCC(=O)O)NC(=O)[C@H](CC(C)C)NC(=O)[C@H](CC(=O)O)NC(=O)[C@H](CC(C)C)NC(=O)[C@H](Cc1ccccc1)NC(=O)[C@H](Cc1ccccc1)NC(=O)[C@@H](NC(=O)[C@H](CC(N)=O)NC(=O)[C@@H](NC(=O)[C@H](CCC(N)=O)NC(=O)[C@H](CC(=O)O)NC(=O)[C@H](CC(C)C)NC(=O)[C@@H](N)CO)[C@@H](C)CC)C(C)C)C(=O)N[C@@H](CCCCN)C(=O)N[C@@H](CCCCN)C(=O)N[C@@H](CC(C)C)C(=O)N[C@@H](CCC(=O)O)C(=O)N[C@@H](CCC(=O)O)C(=O)N[C@H](C(=O)N[C@@H](Cc1ccc(O)cc1)C(=O)N[C@H](C(=O)N[C@@H](CC(=O)O)C(=O)N[C@@H](CC(C)C)C(=O)N[C@@H](CCCCN)C(=O)N[C@@H](CCC(=O)O)C(=O)N[C@@H](CC(C)C)C(=O)O)[C@@H](C)CC)[C@@H](C)O
IC50 (SARS-CoV-2 EG.5.1 pseudovirus; pseudovirus infection, inhibitor, luciferase; Caco-2; 24 h, dual mutations): 230 nM

O=C(Oc1cncc(Cl)c1)c1cc2ccccc2s1
inhibition (rep main protease; enzyme activity; SARS-CoV-2; concentration not given, pH 7.2): 100%

CC(C)(C)c1ccc(-c2cn(-c3ccc(C(=O)C=C(O)C(=O)O)cc3)nn2)cc1
inhibition (rep nsp14 with nsp10; exonuclease activity, inhibitor; 20 µM): -5%

Some of these lines once more:
O=C(NCc1ccc(F)cc1)C1C(=O)N(O)C(=O)c2cc([N+](=O)[O-])ccc21 (stereo not drawn)
inhibition (rep nsp14 with nsp10; exonuclease activity, inhibitor; 20 µM): 106%

CC(C)(C)c1ccc(-c2cn(-c3ccc(C(=O)C=C(O)C(=O)O)cc3)nn2)cc1
inhibition (rep nsp14 with nsp10; exonuclease activity, inhibitor; 20 µM): -5%
